{"data": "Experimental data from different studies", "note": "Each numbered part is a random draw from the data of one study; scales do not carry over between parts."}
{"data": "Set 1", "target": "Interferon regulatory factor 5, full length, phosphomimetic (IRF5, Homo sapiens, UniProt Q13568-2, residues 1-514, K96S/S451D/S453D/S456D/S462D)", "method": "protein-binding microarray", "molecule type": "double-stranded DNA, one strand shown", "matrix": "in vitro", "concentration": "250 nM", "setting": "60-bp whole probe", "together with": "salmon DNA 0.4 mg/ml", "baseline": "random background probes", "direction": "higher = stronger binding", "shared flanks, not repeated": "GCCTAGCAC … GTCTTGATTCGCTTGACGCTGCTG"}
{"Sequence": "TCACTTCTGGGCTGTTTGACTGTGCTA", "log fluorescence": "0.104 z-score"}
{"Sequence": "GACGGTTCCGGACTGGGGACGTGCTAG", "log fluorescence": "-0.183 z-score"}
{"Sequence": "TTAGGACAGGGGTTTCGGTTAGTGCTA", "log fluorescence": "7.13 z-score"}
{"Sequence": "TTGGGTTCCGGTTTCGGTTAGTGCTAG", "log fluorescence": "9.05 z-score"}
{"Sequence": "TCACCTCTCTCTTTCCAACTGTGCTAG", "log fluorescence": "0.425 z-score"}
{"Sequence": "TTAGGGTTCGGACTGGGTTAGTGCTAG", "log fluorescence": "-0.19 z-score"}
{"Sequence": "AACGATTTCAGTCTCGAGACGTGCTAG", "log fluorescence": "1.67 z-score"}
{"Sequence": "TTAGGACTGGGGTCTGGGTTAGTGCTA", "log fluorescence": "-0.746 z-score"}
{"Sequence": "GACGATTTCGGATATCGAGACGTGCTA", "log fluorescence": "2.78 z-score"}
{"Sequence": "GATGGACTGGACACTGGGGACGTGCTA", "log fluorescence": "-0.582 z-score"}
{"Sequence": "GACGGAATGGACTATCGGGACGTGCTA", "log fluorescence": "0.968 z-score"}
{"Sequence": "GAAGATTTCAGACTGGAGACGTGCTAG", "log fluorescence": "0.0717 z-score"}
{"Sequence": "TCATGTGTCAACTTTCTCACTGTGCTA", "log fluorescence": "0.793 z-score"}
{"Sequence": "GACGGTATCGACACTGGGAACGTGCTA", "log fluorescence": "2.04 z-score"}
{"Sequence": "GGCAGCCTCTGCATTCCCTCAGTGCTA", "log fluorescence": "-0.923 z-score"}
{"Sequence": "TTAGGACTGGGTTTTGGTTAGTGCTAG", "log fluorescence": "0.553 z-score"}
{"Sequence": "TTAGGTATCCTTCTCCTTCAGTGCTAG", "log fluorescence": "0.243 z-score"}
{"Sequence": "GACGGTAGCCTTATCCTGACGTGCTAG", "log fluorescence": "-0.231 z-score"}
{"Sequence": "TCAGGTTTCCTTATCCTTTAGTGCTAG", "log fluorescence": "1.04 z-score"}
{"data": "Set 2", "target": "RNA binding protein fox-1 homolog 2, RRM domain, GST-SBP tag (RBFOX2, Homo sapiens, UniProt O43251-10, residues 100-194)", "method": "RNA Bind-n-Seq", "molecule type": "RNA", "matrix": "in vitro", "concentration": "365 nM", "setting": "natural RNA segment, single round, ends assumed", "baseline": "no-protein control", "direction": "higher = stronger binding", "shared flanks, not repeated": "GGGAGUUCUACAGUCCGACGAUC … UGGAAUUCUCGGGUGCCAA", "Residues (chain)": "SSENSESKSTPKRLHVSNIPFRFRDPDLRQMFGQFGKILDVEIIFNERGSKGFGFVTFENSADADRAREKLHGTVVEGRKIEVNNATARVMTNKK"}
{"Sequence": "UACCUAGAGAACAGGUGGUUUUUAAGGGUUAUCUUAGAUGUUUCACACCGGAAGGUUUUUAAACACUAAAAUAUAUAAUUUAUAGUUAAGGCUAAAAAGUAUAUUUAUUG", "RBNS enrichment (R)": 0.279}
{"Sequence": "CAUAAAUUUGGAGAAAAUAAUAUGACUAGAAAAAUUAGUGUUAUAUUGGGUGUGAGAAAAGACUGUGUCUUGAAAGAAUUAUCAAAGCUGAUACAGCACAUAUACAGAAU", "RBNS enrichment (R)": 1.29}
{"Sequence": "GUGUGGCAACCCUGCUCUGUGCUCUGAAACCAAAGUGUGUCCUGUCUUGUCUGUCUCUCACCCUGCCAAAAGCAAGUGUCUAAUCACUGAUGCUGACCAGCCUGUUACAG", "RBNS enrichment (R)": 0.349}
{"Sequence": "GGGAUUGAGUCUUGAGGAAUUCUCUCAGAUGAGAGCCAUAGGAGAUGGCCUCAUCUCCUGACUGUUUCAUGAACAACUCAUUCCUAGGUGUUAUUUGCAUGUGUGGGUUU", "RBNS enrichment (R)": 24.5}
{"Sequence": "AGGAAAUGUGAAAAUAUUUGUGUUUGUUUUGUCUGACUAACUUGCUGCUAAAUGCUAUCUUUAGGUGUGUGAAAGUUCUUUGAUAUGUUAUUGUCCUUUUACAUCUUGUU", "RBNS enrichment (R)": 1.01}
{"Sequence": "GUGCUGUGUCAUGAGGCAAAGCCCAGCCUGGCCCCACCCACAGCUCUGGCUUUGACUGACUCCUGGGGGAAGCUGCUGUGGCCCAGCUCCUCCCUCCUCAUCUUGCCGUC", "RBNS enrichment (R)": 0.265}
{"Sequence": "CACAAAUGAAUAUCUCAAUUACAUUUGGGUUCCAUUCUCAAGAUAUUUUAUUAUGUAUAUUCAAUUCAAAUAUUCUAAUGUCUAGAAAAAUGAAAACCCUGGAUAUUCUG", "RBNS enrichment (R)": 0.488}
{"Sequence": "GUGCAGAAAAUAUUUAAUAUCAAAAGAAAAUUGAUAUUUUUAUACAAGUAAUUUCCUGAGCUAAAUGCUUCAUUGAAAGCUUCAAAGUUUAUAUGCCUGGUGCACAGUGC", "RBNS enrichment (R)": 0.638}
{"data": "Set 3", "target": "Histone acetyltransferase KAT6A, winged helix 1, GST fusion (KAT6A, Homo sapiens, UniProt Q92794, residues 1-85)", "method": "protein binding microarray", "molecule type": "double-stranded DNA, one strand shown", "matrix": "in vitro", "concentration": "not given", "setting": "8-mer, flanks averaged, mean of 2 arrays, mostly near background", "baseline": "not given", "direction": "higher = stronger binding", "Residues (chain)": "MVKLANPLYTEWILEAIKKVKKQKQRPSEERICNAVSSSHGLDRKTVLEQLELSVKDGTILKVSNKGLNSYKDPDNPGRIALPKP"}
{"Sequence": "AGCTGGGA", "E-score": -0.283}
{"Sequence": "GCCCGCAA", "E-score": 0.191}
{"Sequence": "ATGACGCG", "E-score": 0.286}
{"Sequence": "CTTCTGAA", "E-score": -0.0141}
{"Sequence": "ATGTTTGA", "E-score": -0.323}
{"Sequence": "ACAACTCA", "E-score": -0.27}
{"Sequence": "ATCCTAAA", "E-score": -0.099}
{"Sequence": "CGCGAGTA", "E-score": 0.251}
{"Sequence": "AGTGAACC", "E-score": -0.0316}
{"Sequence": "ATACATCA", "E-score": -0.283}
{"Sequence": "AAGTCCGG", "E-score": 0.0222}
{"Sequence": "CATAGGGG", "E-score": -0.166}
{"Sequence": "CCCGTTAC", "E-score": 0.26}
{"Sequence": "CGTACCCC", "E-score": 0.237}
{"Sequence": "AATAACAT", "E-score": 0.00236}
{"Sequence": "ACATCTAC", "E-score": -0.124}
{"Sequence": "ACCGTGAC", "E-score": 0.147}
{"Sequence": "ACGCTAAC", "E-score": 0.163}
{"Sequence": "AATCCAGA", "E-score": -0.308}
{"Sequence": "AAATTACC", "E-score": 0.0455}
{"data": "Set 4", "target": "RING finger protein unkempt homolog, zinc fingers 1-6, SBP tag (UNK, Homo sapiens, UniProt Q9C0B0, residues 30-357)", "method": "RNA Bind-n-Seq", "molecule type": "RNA", "matrix": "in vitro", "concentration": "100 nM", "setting": "RNA with constant flanks, ends assumed", "baseline": "input RNA pool", "direction": "higher = stronger binding", "UniProt Q9C0B0, sequence (30-357, looked up)": "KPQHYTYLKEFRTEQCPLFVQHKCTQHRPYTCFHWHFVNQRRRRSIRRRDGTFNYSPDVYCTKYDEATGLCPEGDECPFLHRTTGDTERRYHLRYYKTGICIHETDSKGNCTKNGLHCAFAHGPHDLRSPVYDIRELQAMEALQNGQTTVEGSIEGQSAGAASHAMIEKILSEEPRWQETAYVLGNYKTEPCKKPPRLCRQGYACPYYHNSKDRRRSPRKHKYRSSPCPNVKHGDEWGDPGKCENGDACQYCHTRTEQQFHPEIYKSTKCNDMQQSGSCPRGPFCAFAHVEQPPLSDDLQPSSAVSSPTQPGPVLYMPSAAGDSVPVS"}
{"Sequence": "GGGAGUUCUACAGUCCGACGAUCUUUUAUUGAUCAGGUCUGUAAAUGUGUACUAAAAAAAUCAGAGUUUAUUUAUAAACAAAACCGUUUAUUUAAAGAGAAGGUCUCUUCCUUAUUGAUAUCAUGGUAUGCAUUAAUUCCAUUCAACAGAGGAUUGAGCAUCA", "bound/input enrichment": "0.174 ratio"}
{"Sequence": "GGGAGUUCUACAGUCCGACGAUCCAUCUCUCAUUUUAUAUGUCCAGAAAUGGCUUUGAAUUUUAAGCAAUUACCCGUUUUAAUCCGCUCUGCCCUCAUGAAGUAUUAUUAUAAUUCACCAUAAACAGCUAUCUGUCUGAAUUACAACAGAGGAUUGAGCAUCA", "bound/input enrichment": "0.659 ratio"}
{"Sequence": "GGGAGUUCUACAGUCCGACGAUCAUGCCGUUUGUUUUUAAUUUCAAGCAAAAUCUUACUGUACUUGAAUGUGCCCUGUUUUGUCCGCACACCCCGACUUGCUGUAACUGUACUCAUGUCCCAGUAUGUACGUUCUUUCUAUGACAACAGAGGAUUGAGCAUCA", "bound/input enrichment": "0.455 ratio"}
